Experimental data pooled from the literature.
Every numbered part comes from another study and shows a few of its results, in no order. Changes are numbered by the printed parent chain.

Sample 1
Target: Centromere-binding protein 1, full length, N-terminal tag (CBF1, Saccharomyces cerevisiae, UniProt P17106, residues 1-351)
Sequence of UniProt P17106 (whole entry, looked up): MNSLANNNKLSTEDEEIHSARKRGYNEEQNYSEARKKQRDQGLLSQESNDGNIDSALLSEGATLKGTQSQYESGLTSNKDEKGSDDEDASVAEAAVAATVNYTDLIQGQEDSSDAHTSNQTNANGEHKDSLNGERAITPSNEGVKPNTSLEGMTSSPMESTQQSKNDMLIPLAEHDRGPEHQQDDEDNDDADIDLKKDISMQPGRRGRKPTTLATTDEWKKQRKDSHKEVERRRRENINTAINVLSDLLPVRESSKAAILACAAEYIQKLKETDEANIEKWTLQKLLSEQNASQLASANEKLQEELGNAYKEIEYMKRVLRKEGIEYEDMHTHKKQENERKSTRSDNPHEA
Method: protein-binding microarray
Molecule type: double-stranded DNA, one strand shown
Matrix: in vitro
Tested at: 0.8 µM
Notes: whole 60-bp probe, no competitor
Direction: higher = stronger binding
Constant ends, left off below: … GTCTTGATTCGCTTGACGCTGCTG
For `GAAAAAAGTAGTAGTCACGTAGCTTAATTGTATTAG`, the fluorescence intensity was 688 a.u.
With `CTACCGTATTATTAACGTGACACTCAGTATTCTTTC` the fluorescence intensity was 1050 a.u.
`GAAAACCTGGAATGCCACGAGGATGTATTTTCGTAG` gave a fluorescence intensity of 578 a.u.
`TGTACGAAGCTATCTCTCGTCAGTATAGTAGTTAGG` gave a fluorescence intensity of 531 a.u.
The fluorescence intensity of `GAATGTATTATTGGTGGTGTCAGTAGGGGAAGATAG` is reported as 579 a.u.
`GAATATGTAAACTCTGATGTAGGATCGCACTTTTAG` has a fluorescence intensity of 549 a.u.
For `GAATTTTTTTTTGAAAACATGATGATATACTAATAG`, the fluorescence intensity was 587 a.u.
The fluorescence intensity of `GAAGGCTCTTTTCATGATGTGCCACATGAGTACTAG` is reported as 579 a.u.
For `CTAAAAAAAAGAATACGCATGACAAATTTTGAATTC`, the fluorescence intensity was 671 a.u.
`TGTACGAAGCTATATCATGTATATATAGTAGTTAGG` has a fluorescence intensity of 538 a.u.
For `CTATCTTATCATGGTAGTGATCACAAATAGATCTTC`, the fluorescence intensity was 649 a.u.
`GAAGGCCACGGAACGCACGTGGCGGGACTCGTATAG` gave a fluorescence intensity of 3280 a.u.
`CTATGCGTAGTATAGTGCGTGAGCTTATTGTGCTTC` gave a fluorescence intensity of 511 a.u.
With `TGTACGAAGCTATATCTGATGACTATAGTAGTTAGG` the fluorescence intensity was 535 a.u.
For `GAAGCGGAGTTATCACACGTAATGGTACTGAGTTAG`, the fluorescence intensity was 529 a.u.
`CTAAAAGAAAAATTAAACGTGATCGGTCTATCGTTC` has a fluorescence intensity of 1620 a.u.
`GAAAATGAGGCTTTGCTGGTGACAATTCAGAAATAG` has a fluorescence intensity of 557 a.u.
For `CTAGGTCGTATATATATCGTGCGTCTTCTTCCTTTC`, the fluorescence intensity was 510 a.u.
The fluorescence intensity of `GAACAAATTTATAGTCAGCTGAAATATGTGAATTAG` is reported as 752 a.u.

Sample 2
Target: CCNE2, cyclin fold, Cln2 fusion (human)
Method: yeast growth competition, sequencing
Matrix: yeast
Notes: strong parent motif
Relative to: not given
Direction: higher = stronger binding
Parent: E2F1 docking peptide (human); PPVKRRLDFETDH
For `T11V`, “normalised enrichment score” read 5.68.
Under “normalised enrichment score”, `D8Y` is recorded as 6.47.
`R6V`: “normalised enrichment score” 5.6.
For `K4S`, “normalised enrichment score” read 3.41.
`R6Y` — result for “normalised enrichment score”: 1.2.
`P2D`: “normalised enrichment score” 4.45.
For `E10V`, “normalised enrichment score” read 5.73.
`E10W`: “normalised enrichment score” 4.81.
For `D12G`, “normalised enrichment score” read 6.36.
`T11W`: “normalised enrichment score” 6.04.
`E10N` — result for “normalised enrichment score”: 6.75.
For `L7K`, “normalised enrichment score” read 0.162.
`F9C` — result for “normalised enrichment score”: 0.423.
Under “normalised enrichment score”, `F9D` is recorded as 0.194.
Under “normalised enrichment score”, `D12R` is recorded as 6.59.
Under “normalised enrichment score”, `K4N` is recorded as 3.73.
`V3E`: “normalised enrichment score” 0.677.
For `T11N`, “normalised enrichment score” read 5.7.

Sample 3
Target: RNA binding protein fox-1 homolog 2, RRM domain, GST-SBP tag (RBFOX2, Homo sapiens, UniProt O43251-10, residues 100-194)
Method: RNA Bind-n-Seq
Molecule type: RNA
Matrix: in vitro
Tested at: 365 nM
Notes: natural RNA segment, single round, ends assumed
Relative to: no-protein control
Direction: higher = stronger binding
Constant ends, left off below: GGGAGUUCUACAGUCCGACGAUC … UGGAAUUCUCGGGUGCCAA
Target sequence (chain): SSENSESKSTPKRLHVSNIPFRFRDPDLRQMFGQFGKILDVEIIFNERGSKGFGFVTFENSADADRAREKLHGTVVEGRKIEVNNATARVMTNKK
`CCAGGUGGGAGGGCUCUGGGAGUGAUGGGGUGACAGGGUGGACUGAUGGCUGGGGUCCCCCAUCUGCUAUGCGUACUUCACUGACCUAUAAACACUAAGAUGGGGUGCAA`: “RBNS enrichment (R)” 2.28.
`GCUCCGGGCCAGCAUGUUGGAAUCCAGCGUGGAGCAGAUGCAGUAAAAAUGUGGUUGGUUUCUGUGUAAGCGCUGUUGUUGUUCUUUUGUUCUCUCACUCUCAUCUUUUA`: “RBNS enrichment (R)” 23.9.
Under “RBNS enrichment (R)”, `CCUCUUGGGCCCCCUGCACUCGGUCUCCCCUGGAGUUUCUGAAUUCUCUCACCCAAGUCCCUACACAGUCAUGAACACCACACCCAAGCCUAGCCAUCCACCCCACACGG` is recorded as 0.598.
For `CAGUACAUUGACGGGCAGGGCCGGCCCCGCACCAGCCAGUCUGAGGAGACCCGCGUGUGGCACCGCCGCGACGGCAAGUGGCAGAACGUGCACUUCCACUGCUCGGGCGC`, “RBNS enrichment (R)” read 0.43.
`CCGGUGUGGACACGUGCUGGUUAAGCACUCAGGCCUACGUGGGCCGAGCGGGAUCUUGAUCAUGGGGCUGGUGUAUGGAUCCACCGUCGGAUUCCGUCUGCAGAGGAGGA`: “RBNS enrichment (R)” 2.19.
`GCCUGUUCCACCCCUUUGUUCACUUCGCGUUAACUGCUGUGGUAACUUUUUCAGGAUCUGUGUGAAGAAUGGUAAUGACGUAGUUGAAAGGAAAAUGUACUGUUGUGUGU` — result for “RBNS enrichment (R)”: 0.864.
`GUGAUGUUAAUACAGGCUUCUUGUUUUAGGAAGCAUCACCUAUACUCUGAAGCCUUUAAACUCUGAAGAGAAUUGUUUCAGAGUUAUUCCAAGCACUUGUGCAACUUGGA`: “RBNS enrichment (R)” 1.2.
`GGUCCGUACUAUGCCCAGGUGUCAGCAGGAAACAAGGCCUUGCUCACAGGAGCACAGGCUGUACCACCACAAGGAGCCUCAGAGCGGCCAGUGAGGAAAGGGGAGAGAGC`: “RBNS enrichment (R)” 0.379.
For `UGUGGGCUGAUAGUUGAUCACACAUUGUGCUUUUGAUUUUUGCAUUUGGUGAUGAAUAUUUUAUACCCGUCUAAGGGAGAAAGCUAAUGUUUUCCACAAGACUGAACAAC`, “RBNS enrichment (R)” read 0.415.
Under “RBNS enrichment (R)”, `UCAGGCCGGGCGGCCAGCCUUGCACUACUGACCACGAUGAUGCCAGGCUGGGCGGCCAGCCUUGCACUAUGUCCCAGCCCCACUACUGAACACUACUGACUUAGACUGCU` is recorded as 0.257.
For `GGGCCCAUGGCCCCAGCUGGCUGGGUCGCCCCUCCUCGGGCGCCUGCGCUCCUCUGCAGCCUGAGCUCCACCCUCCCCUCUUCUUGCGGCACCGCCCACCCACACCCCGU`, “RBNS enrichment (R)” read 0.884.
Under “RBNS enrichment (R)”, `AAACAGGAUCUAUCAUGGUGGCACGGAGUCAGCUAGAUGUUGUCUCUUGCUAUCCCUGUGCUAGUUCCAUGUUUUAGAAGCAAAGUGAUACUGGGGAGGAGAGGAGGGCA` is recorded as 0.586.

Sample 4
Target: Sal-like protein 4, full length isoform A (SALL4, Homo sapiens, UniProt Q9UJQ4, residues 1-1053)
Sequence of UniProt Q9UJQ4 (whole entry, looked up): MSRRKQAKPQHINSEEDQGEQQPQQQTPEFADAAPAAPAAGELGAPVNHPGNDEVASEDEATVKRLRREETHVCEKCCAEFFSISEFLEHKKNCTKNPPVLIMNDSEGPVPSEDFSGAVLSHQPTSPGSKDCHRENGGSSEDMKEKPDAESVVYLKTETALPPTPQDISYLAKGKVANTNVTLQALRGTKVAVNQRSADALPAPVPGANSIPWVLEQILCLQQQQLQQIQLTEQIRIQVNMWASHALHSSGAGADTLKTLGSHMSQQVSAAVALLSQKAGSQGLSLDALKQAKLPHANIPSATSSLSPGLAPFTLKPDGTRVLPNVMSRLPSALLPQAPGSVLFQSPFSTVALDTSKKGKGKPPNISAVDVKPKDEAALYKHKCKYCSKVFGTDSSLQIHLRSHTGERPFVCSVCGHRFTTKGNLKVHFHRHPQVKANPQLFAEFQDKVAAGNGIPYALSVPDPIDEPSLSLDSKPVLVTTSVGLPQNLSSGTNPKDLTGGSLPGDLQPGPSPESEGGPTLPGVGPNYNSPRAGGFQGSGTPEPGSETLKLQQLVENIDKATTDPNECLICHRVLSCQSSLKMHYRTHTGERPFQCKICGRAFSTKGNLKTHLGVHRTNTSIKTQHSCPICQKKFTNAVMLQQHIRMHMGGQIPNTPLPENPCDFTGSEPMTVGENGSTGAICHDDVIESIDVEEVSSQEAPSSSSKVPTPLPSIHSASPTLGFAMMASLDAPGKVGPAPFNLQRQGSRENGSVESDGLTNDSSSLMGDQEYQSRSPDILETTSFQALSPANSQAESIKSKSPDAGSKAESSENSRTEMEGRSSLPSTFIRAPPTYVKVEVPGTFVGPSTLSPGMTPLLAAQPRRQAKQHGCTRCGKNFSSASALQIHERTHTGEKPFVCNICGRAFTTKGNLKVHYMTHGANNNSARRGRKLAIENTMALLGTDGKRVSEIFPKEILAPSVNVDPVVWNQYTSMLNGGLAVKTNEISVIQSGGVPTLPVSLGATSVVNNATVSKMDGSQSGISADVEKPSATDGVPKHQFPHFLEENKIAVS
Method: universal PBM
Molecule type: double-stranded DNA, one strand shown
Matrix: in vitro
Tested at: 600 nM
Notes: 8-mer, flanks averaged, mean of replicates
Direction: higher = stronger binding
`ACGGTGCT` has an E-score of -0.199.
`CGTTGATA` has an E-score of 0.213.
`GGTCAGCA` gave an E-score of -0.0672.
`ACGGCTGC` has an E-score of -0.341.
`ACTAGGAG` gave an E-score of -0.165.
The E-score of `TTGGAAAA` is reported as 0.266.
`ACGTCTAG` gave an E-score of 0.14.
`AACCCGTT` has an E-score of -0.168.
`TCTCTTCA` gave an E-score of -0.0242.
`TGCCAGAA` gave an E-score of -0.0125.
`AAGAAGTA` gave an E-score of 0.154.
With `CTGACCTC` the E-score was -0.334.
The E-score of `AATTTCCG` is reported as 0.068.
With `AGCGGCGG` the E-score was -0.308.

Sample 5
Target: ABI1, truncated, D143A, DHFR fusion (Arabidopsis thaliana)
Method: DHFR PCA, deep sequencing
Matrix: yeast
Notes: methotrexate growth selection, single substitutions
Added: (+)-ABA 710 µM
Relative to: wild-type fitted maximum
Direction: higher = stronger binding
Parent: PYL1, truncated, DHFR fusion (Arabidopsis thaliana); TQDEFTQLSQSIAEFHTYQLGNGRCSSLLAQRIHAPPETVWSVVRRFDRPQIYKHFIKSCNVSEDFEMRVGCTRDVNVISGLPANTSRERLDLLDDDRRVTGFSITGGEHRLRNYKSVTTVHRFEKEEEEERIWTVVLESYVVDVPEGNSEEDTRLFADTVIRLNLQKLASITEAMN; partner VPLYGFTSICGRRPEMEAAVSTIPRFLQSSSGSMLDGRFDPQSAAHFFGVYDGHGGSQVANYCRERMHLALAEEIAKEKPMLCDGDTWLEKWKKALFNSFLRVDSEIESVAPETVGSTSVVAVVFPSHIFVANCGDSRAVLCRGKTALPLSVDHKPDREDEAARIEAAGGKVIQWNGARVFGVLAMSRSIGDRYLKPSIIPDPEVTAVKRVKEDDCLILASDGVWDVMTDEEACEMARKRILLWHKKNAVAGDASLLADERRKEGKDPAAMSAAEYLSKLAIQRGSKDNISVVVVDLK
Under “relative binding score”, `K54N` is recorded as 35.1%.
Under “relative binding score”, `L138S` is recorded as 25.3%.
`R74Q` — result for “relative binding score”: -25.3%.
`N85S` — result for “relative binding score”: 102%.
`E152Q` — result for “relative binding score”: 99.7%.
`V118T`: “relative binding score” 111%.
`T119L` — result for “relative binding score”: 106%.
Under “relative binding score”, `E128T` is recorded as 113%.
`N149W`: “relative binding score” 13.1%.
For `I52V`, “relative binding score” read 103%.
Under “relative binding score”, `D95L` is recorded as 101%.
`E129Y` — result for “relative binding score”: 106%.

Sample 6
Target: Prothrombin, mature alpha-thrombin (F2, Homo sapiens, UniProt P00734)
Method: aptamer microarray, sandwich
Molecule type: DNA with 2'F-ANA
Matrix: in vitro
Tested at: 200 nM
Notes: whole 15-mer aptamer, many near background
Added: Cy3 exosite-II aptamer, 400 nM
Direction: higher = stronger binding
Oligonucleotide: GGTTGGTGTGGTTGG
For `2'F-ANA at 1 6 8 9 10 11 13`, “mean fluorescence intensity” read 52.4 a.u.
For `2'F-ANA at 1 4 5 6 8 9 10 11 13 14 15`, “mean fluorescence intensity” read 50 a.u.
Under “mean fluorescence intensity”, `2'F-ANA at 1 3 4 5 6 7 9 13 14` is recorded as 81.6 a.u.
`2'F-ANA at 4 5 6 11 13 14 15` — result for “mean fluorescence intensity”: 43.8 a.u.
For `2'F-ANA at 1 4 9 10 11 13 14 15`, “mean fluorescence intensity” read 48 a.u.
`2'F-ANA at 1 2 3 5 7 11` — result for “mean fluorescence intensity”: 58.8 a.u.
Under “mean fluorescence intensity”, `2'F-ANA at 1 2 5 6 8 9 10 11 12` is recorded as 63.7 a.u.
For `2'F-ANA at 1 4 5 6 7 8 9 13`, “mean fluorescence intensity” read 52.8 a.u.
`2'F-ANA at 7 9 10 11 12 13 14 15`: “mean fluorescence intensity” 106 a.u.
For `2'F-ANA at 1 2 3 4 5 7 8 9 10 13 14 15`, “mean fluorescence intensity” read 136 a.u.
Under “mean fluorescence intensity”, `2'F-ANA at 1 3 5 9 12 15` is recorded as 128 a.u.
`2'F-ANA at 1 2 3 7 8 9 13 15` — result for “mean fluorescence intensity”: 210 a.u.
Under “mean fluorescence intensity”, `2'F-ANA at 1 2 5 7 9 15` is recorded as 58.3 a.u.
For `2'F-ANA at 1 2 3 6 7 9`, “mean fluorescence intensity” read 192 a.u.
For `2'F-ANA at 4 7 8 9 10 11 12 14`, “mean fluorescence intensity” read 64.4 a.u.
For `2'F-ANA at 3 4 9 10 11 12 13`, “mean fluorescence intensity” read 296 a.u.

Excerpt of the above (sample 1):
For `GAAAAAAGTAGTAGTCACGTAGCTTAATTGTATTAG`, the fluorescence intensity was 688 a.u.
With `CTACCGTATTATTAACGTGACACTCAGTATTCTTTC` the fluorescence intensity was 1050 a.u.
`GAAAACCTGGAATGCCACGAGGATGTATTTTCGTAG` gave a fluorescence intensity of 578 a.u.
`TGTACGAAGCTATCTCTCGTCAGTATAGTAGTTAGG` gave a fluorescence intensity of 531 a.u.
The fluorescence intensity of `GAATGTATTATTGGTGGTGTCAGTAGGGGAAGATAG` is reported as 579 a.u.
`GAATATGTAAACTCTGATGTAGGATCGCACTTTTAG` has a fluorescence intensity of 549 a.u.
For `GAATTTTTTTTTGAAAACATGATGATATACTAATAG`, the fluorescence intensity was 587 a.u.
The fluorescence intensity of `GAAGGCTCTTTTCATGATGTGCCACATGAGTACTAG` is reported as 579 a.u.
